Experimental data of several laboratories.
Every numbered part comes from another study and shows a few of its results, in no order. Changes are numbered by the printed parent chain.

Set 1 — target: CCNB1, cyclin fold, Cln2 fusion (human); method: yeast growth competition, sequencing; medium: yeast; setting: strong parent motif; baseline: not given; reading: higher = stronger binding
Starting sequence: E2F1 docking peptide (human); PPVKRRLDLETDH
`E10Y` — result for “normalised enrichment score”: 0.316.
For `R5C`, “normalised enrichment score” read 0.674.
`R6K` — result for “normalised enrichment score”: 1.07.
For `P1D`, “normalised enrichment score” read 1.39.
Under “normalised enrichment score”, `D8L` is recorded as 2.12.
For `T11K`, “normalised enrichment score” read 0.533.
Under “normalised enrichment score”, `L7W` is recorded as 0.917.
Under “normalised enrichment score”, `P2K` is recorded as 0.443.
Under “normalised enrichment score”, `D8W` is recorded as 0.635.
Under “normalised enrichment score”, `R6L` is recorded as 0.372.
`D12P`: “normalised enrichment score” 2.06.
For `R6T`, “normalised enrichment score” read 1.23.
For `R6F`, “normalised enrichment score” read -0.189.
For `E10C`, “normalised enrichment score” read 1.17.
`D12R` — result for “normalised enrichment score”: 0.655.
`V3T` — result for “normalised enrichment score”: 0.284.
For `E10P`, “normalised enrichment score” read 0.789.
For `K4N`, “normalised enrichment score” read 1.51.
Under “normalised enrichment score”, `D12K` is recorded as 1.09.
`P2I`: “normalised enrichment score” 0.356.
`D8Q`: “normalised enrichment score” 1.36.
`R5G` — result for “normalised enrichment score”: 0.895.
For `V3G`, “normalised enrichment score” read -0.0348.
`K4D`: “normalised enrichment score” 1.04.
Under “normalised enrichment score”, `E10G` is recorded as 1.73.

Set 2 — method: DHFR PCA, deep sequencing; medium: yeast; added: (+)-ABA 200 µM; baseline: wild-type fitted maximum; reading: higher = stronger binding
Target: ABI1, truncated, D143A, DHFR fusion (Arabidopsis thaliana)
Setting: methotrexate growth selection, single substitutions
Starting sequence: PYL1, truncated, DHFR fusion (Arabidopsis thaliana); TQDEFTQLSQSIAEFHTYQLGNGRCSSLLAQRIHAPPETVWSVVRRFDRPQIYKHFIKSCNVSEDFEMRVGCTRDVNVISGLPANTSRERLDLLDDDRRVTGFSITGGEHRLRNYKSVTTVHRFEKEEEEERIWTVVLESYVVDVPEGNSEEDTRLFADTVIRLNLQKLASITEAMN; partner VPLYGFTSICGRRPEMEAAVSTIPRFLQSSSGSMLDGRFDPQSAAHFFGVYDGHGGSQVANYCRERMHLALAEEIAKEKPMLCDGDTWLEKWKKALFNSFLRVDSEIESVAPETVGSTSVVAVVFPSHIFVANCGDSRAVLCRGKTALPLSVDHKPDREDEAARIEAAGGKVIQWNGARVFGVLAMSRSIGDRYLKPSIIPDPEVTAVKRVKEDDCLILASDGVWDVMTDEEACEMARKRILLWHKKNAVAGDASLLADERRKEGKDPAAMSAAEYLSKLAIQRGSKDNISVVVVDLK
`C60E`: “relative binding score” 10.9%.
`R24H` — result for “relative binding score”: 91.7%.
`F47L`: “relative binding score” -11.7%.
Under “relative binding score”, `M68A` is recorded as 92.5%.
`D96M` — result for “relative binding score”: 42.7%.
`F56I`: “relative binding score” 4.85%.
`R163I`: “relative binding score” 45.3%.
`T173D`: “relative binding score” -11.1%.
`T39P`: “relative binding score” 63.1%.

Set 3 — method: RNA Bind-n-Seq; form: RNA; medium: in vitro; concentration: 365 nM; baseline: no-protein control; reading: higher = stronger binding
Target: RNA binding protein fox-1 homolog 2, RRM domain, GST-SBP tag (RBFOX2, Homo sapiens, UniProt O43251-10, residues 100-194)
Setting: natural RNA segment, single round, ends assumed
Target sequence (chain): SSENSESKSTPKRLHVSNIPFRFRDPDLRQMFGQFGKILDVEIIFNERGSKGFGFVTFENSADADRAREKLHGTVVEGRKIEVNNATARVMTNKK
For `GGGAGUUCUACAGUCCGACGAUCCACAAGGGCCGGCAUCACCAGACCAGCUGAGGACAACUCAGACUGACAGUUGGACAAACAUUGCGACGUUUUCGUUUAAGCAAAUACAGGUGCAUUUAAAAAACACGACUUGGAAUUCUCGGGUGCCAA`, “RBNS enrichment (R)” read 0.336.
Under “RBNS enrichment (R)”, `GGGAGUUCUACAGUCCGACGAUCAUAUAACUUCAUCAUGAAUAUGCUGUGAUCCUCGUUUGAUGGAAUUACGCAAGGAAAGAACGGGAAGAAAGGAUAUUUUGCUGCAAGAUUAAGUUACAGUUCUCAGUGGAUGGAAUUCUCGGGUGCCAA` is recorded as 0.705.
Under “RBNS enrichment (R)”, `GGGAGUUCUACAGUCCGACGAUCGACAGCUUGGGUGUGAAUGGCAAGACAGUAGAUGAGUCUGGUUAAGCGAGGUCAGACAUCCACCAGAAUCAACUCAGCCUCAGGCAUCCAAAGCCACAUCACAGUCGGUGUGGAAUUCUCGGGUGCCAA` is recorded as 0.497.
`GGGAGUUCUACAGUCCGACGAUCAAUUUUACAUAGUGAAAUACACCAAGUCUUUUCCGGAGUUAUUACAAAGAGCCUCCUUUCCCCACCUUACUCACACUGAUUCCCACCUAACAAUCAGCAGAUGGGAGUGUUGGAAUUCUCGGGUGCCAA`: “RBNS enrichment (R)” 0.391.
`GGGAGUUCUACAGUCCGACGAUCAUCUUUAAAUUAUAGAGCUCAGUAAUCAAUUUAAAGACAGUGUUAAGCUACUCACAGUGGCAAAUGCCUUUUAUCCUAGCACUCCUUAAGCAGAGGCAAACAGGUUUCUUUGGAAUUCUCGGGUGCCAA` — result for “RBNS enrichment (R)”: 0.254.
Under “RBNS enrichment (R)”, `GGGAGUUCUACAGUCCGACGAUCUAAAAGGGGAAAGGCUAAUAGUAAAAUUUGACUUUCUGACUGCAUGCAACUGCUGGGCUUGCCUUCUGUUAGUGUGGUAGUACAUGACAGAGGCAUUAGACUAUUUUUUAUGGAAUUCUCGGGUGCCAA` is recorded as 11.2.
`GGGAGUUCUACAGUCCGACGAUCUCCAUCCCAUGACAUUAUACUGUGAAGUGUAAGAGGACGGGGUUUUUUUAAACUUGGUAGAAAUGUCGGCAGCUGCUCUACACACAACUUCACUCAAGGCUUUGUUUCCAUGGAAUUCUCGGGUGCCAA`: “RBNS enrichment (R)” 0.397.
`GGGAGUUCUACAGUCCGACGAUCUGUGUGGCCAGGCUGCAGAGCUGCGUGCCGUUUGUGUCCGAGCAUCACGUGUGGCUCCAGCCCUUGUUUCUGCCAGUGUAGACACCUCUGUCUGCCCCACUGUCCUGGGGUGGAAUUCUCGGGUGCCAA` — result for “RBNS enrichment (R)”: 0.321.

Set 4 — method: RNA Bind-n-Seq; form: RNA; medium: in vitro; concentration: not given; baseline: input RNA pool; reading: higher = stronger binding
Target: RING finger protein unkempt homolog, zinc fingers 1-6, GST-SBP tag (UNK, Homo sapiens, UniProt Q9C0B0, residues 30-357)
Setting: RNA with constant flanks, human and mouse sites, ends assumed
Construct (chain): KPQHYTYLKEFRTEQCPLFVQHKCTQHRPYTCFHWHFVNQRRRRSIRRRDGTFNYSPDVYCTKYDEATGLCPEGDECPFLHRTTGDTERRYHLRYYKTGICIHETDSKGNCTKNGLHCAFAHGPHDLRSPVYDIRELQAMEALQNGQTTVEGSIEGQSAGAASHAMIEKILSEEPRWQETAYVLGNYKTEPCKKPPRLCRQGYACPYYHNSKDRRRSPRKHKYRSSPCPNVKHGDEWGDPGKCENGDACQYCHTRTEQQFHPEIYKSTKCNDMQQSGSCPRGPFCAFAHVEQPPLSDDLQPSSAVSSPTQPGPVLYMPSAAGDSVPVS
With `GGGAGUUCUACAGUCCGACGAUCGAAUGUGGCUGGAAGGAUCAGUUGAAGGCACACUGUAAAGAGGUAAUUAAAGAAAAAGGACUAGAACACGUUACUGUUGAUGACUUGGUGGCUGAAAUCACUCCAAAAGGCAGAGCCCUGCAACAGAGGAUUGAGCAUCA` the bound/input enrichment was 0.316 ratio.
The bound/input enrichment of `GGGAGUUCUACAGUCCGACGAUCCGGGAUGAGUUUCUGAGAAUCAGCACUGCUAGUGGAGAUGGGCGCCACUACUGCUACCCUCACUUUACCUGCGCCGUGGACACUGAGAACAUCCGCCGUGUCUUCAACGACUGCCGUGACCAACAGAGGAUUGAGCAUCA` is reported as 0.156 ratio.
For `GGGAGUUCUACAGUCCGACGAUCUUCUUCCUCCUAGACCUGAUGCAUGUGUGUCCCUGUACUGUCUGUUUCAAACAAUCAGUGUUGAUCUUCUCUUGCAAAAGAAAGUAACAUGAUCAGUUCUUUAUAAGAAGACCUAAGUAUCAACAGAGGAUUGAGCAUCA`, the bound/input enrichment was 0.309 ratio.
With `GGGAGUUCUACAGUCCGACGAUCCGCUGUCUUGUGGACCCGCACUUCCCACCCGAGACCUCUCACUGAGCCCGAGCCGCGCGCGACAUGAGCCACGGGAAGGGAACCGACAUGCUCCCGGAGAUCGCCGCCGCCGUGGGCUUCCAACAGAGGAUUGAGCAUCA` the bound/input enrichment was 0.143 ratio.
The bound/input enrichment of `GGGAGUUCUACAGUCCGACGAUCACUAAGAGUGAAAGUUGGAAAUGUGAUAUUUGUAAGAAAUCUUUUACUCGAAGACCACACUUGGAGGAACAUAUGAUUCUACAUUCUCAAGAUAAACCUUUUAAGUGUACCUAUUGUGAACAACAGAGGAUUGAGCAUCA` is reported as 0.117 ratio.
`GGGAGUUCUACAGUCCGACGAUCAAAAGCCGGGGAGGCUUUUUUAAUUCAUUUGAAUGUAUGAUUCUCGGACACUCCUUUUGACUUAGGGAUUUGCUUGAAUGCAUAAAGUCAAGAAGCAGAUAGGCUGGCAGGUUUCCAGGCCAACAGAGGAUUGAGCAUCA` has a bound/input enrichment of 0.424 ratio.
With `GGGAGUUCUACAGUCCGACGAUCCCGACGCGCGUCUGUGGAGAAGCGGCUUGGUCGGGGGUGGUCUCGUGGGGUCCUGCCUGUUUAGUCGCUUUCAGGGUUCUUGAGCCCCUUCACGACCGUCACCAUGGAAGUGUCACCAUUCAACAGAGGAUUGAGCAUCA` the bound/input enrichment was 0.0844 ratio.
The bound/input enrichment of `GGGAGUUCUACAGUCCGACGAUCGCUGGAUGAUACCAUAAUGUAUCAAGGAGCGUCCAUGGAUACAAGAUAAGAUGUGUACCUUAGUAGAAUACAGAGCUUUGGUAAUUACAUGAAUAAAAUUAAGAAAAUAGCCAUAUACAACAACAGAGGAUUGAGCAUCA` is reported as 2.63 ratio.

Single results of other studies
The fold induction of `PhoQ, residues 284 288 289 292 302 303 TAVSDG` is reported as 4.84 (PhoP, residues 12 14 15 18 19 LQHIR (Escherichia coli, UniProt P23836); Sort-seq, item: YFP reporter; E. coli; PhoQ-PhoP variant library, added: 10 µM Mg2+; baseline: high Mg2+ state, higher = stronger signaling).

Repeated from above (set 4):
With `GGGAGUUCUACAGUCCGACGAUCGAAUGUGGCUGGAAGGAUCAGUUGAAGGCACACUGUAAAGAGGUAAUUAAAGAAAAAGGACUAGAACACGUUACUGUUGAUGACUUGGUGGCUGAAAUCACUCCAAAAGGCAGAGCCCUGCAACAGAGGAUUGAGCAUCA` the bound/input enrichment was 0.316 ratio.
`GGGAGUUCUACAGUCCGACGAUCAAAAGCCGGGGAGGCUUUUUUAAUUCAUUUGAAUGUAUGAUUCUCGGACACUCCUUUUGACUUAGGGAUUUGCUUGAAUGCAUAAAGUCAAGAAGCAGAUAGGCUGGCAGGUUUCCAGGCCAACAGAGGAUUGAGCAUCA` has a bound/input enrichment of 0.424 ratio.
The bound/input enrichment of `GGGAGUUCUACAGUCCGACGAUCGCUGGAUGAUACCAUAAUGUAUCAAGGAGCGUCCAUGGAUACAAGAUAAGAUGUGUACCUUAGUAGAAUACAGAGCUUUGGUAAUUACAUGAAUAAAAUUAAGAAAAUAGCCAUAUACAACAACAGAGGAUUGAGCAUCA` is reported as 2.63 ratio.
